Experimental data collected from several papers.
Lines come from different studies, so protocols differ. ± marks the error that the study gave.

With COC[C@@H](NC(C)=O)C(=O)NCc1ccc(OCc2ccc(OC(F)(F)F)cc2)cc1 the licking time was 55% (formalin test, phase II; mouse; ip, 8.0 mg/kg; reference: vehicle).
For CC[C@H](C)[C@H](NC(=O)[C@H](Cc1c[nH]c2ccccc12)NC(=O)[C@H](CCCNC(=N)N)NC(=O)[C@H](CCCCN)NC(=O)[C@H](CC(C)C)NC(=O)[C@H](CC(=O)O)NC(=O)[C@H](Cc1ccccc1)NC(=O)[C@H](C)NC(=O)[C@H](Cc1ccc(O)cc1)NC(=O)[C@H](CC(N)=O)NC(=O)[C@H](Cc1ccc(O)cc1)NC(=O)[C@H](CCCNC(=N)N)NC(=O)[C@H](Cc1ccc(O)cc1)NC(=O)[C@H](Cc1ccc(O)cc1)NC(=O)[C@@H](NC(=O)[C@H](CC(C)C)NC(=O)[C@H](C)NC(=O)[C@H](CC(N)=O)NC(=O)[C@H](Cc1ccc(O)cc1)NC(C)=O)[C@@H](C)CC)C(=O)N[C@@H](Cc1ccc(O)cc1)C(=O)N[C@@H](CC(C)C)C(N)=O, “α4β7− CCR9− cells” read 57.1% (measured: HA-52 tetramer; antigen-experienced tetramer+ CD4 T cells, healthy adults, HLA-DRB1*0101; dose not given).
For CC(C)C[C@@H]1NC(=O)[C@H](C(C)C)NC(=O)[C@H](CO)NC(=O)CNC(=O)CNC(=O)[C@H](CCCNC(=N)N)NC(=O)[C@@H]2CCCN2C(=O)[C@@H](NC(=O)CC[C@H](NC(=O)c2ccc(N(C)Cc3cnc4nc(N)nc(N)c4n3)cc2)C(=O)O)C(C)(C)SSC[C@@H](C(=O)O)NC(=O)CNC(=O)[C@H]([C@@H](C)O)NC(=O)[C@H](C(C)C)NC1=O, the spleen weight was 0.295 ± 0.017 g (rat adjuvant arthritis; iv, 5 mg/kg once daily, day 14).
For Cc1ccc(/C=C/C(=O)O)cc1-c1cc2c(cc1C)C(C)(C)CCC2(C)C, “log2 fold change” read 1.18 (RNA sequencing, measured: Dlx2 mRNA; rat, brain; dose not given, 24 h, single dose; reference: vehicle).
Under “α4β7− CCR9+ cells”, CC[C@H](C)[C@H](NC(=O)[C@H](CCCNC(=N)N)NC(=O)[C@H](CCC(N)=O)NC(=O)[C@H](CC(=O)O)NC(=O)[C@H](CC(C)C)NC(=O)[C@H](CC(C)C)NC(=O)[C@H](CC(N)=O)NC(=O)[C@H](Cc1ccccc1)NC(=O)[C@H](CC(=O)O)NC(=O)[C@@H](NC(=O)[C@@H](NC(=O)[C@H](CC(N)=O)NC(=O)CNC(=O)[C@H](CO)NC(C)=O)C(C)C)[C@@H](C)CC)C(=O)N[C@H](C(=O)N[C@@H](Cc1c[nH]c2ccccc12)C(=O)N[C@@H](CCC(N)=O)C(=O)N[C@@H](CC(N)=O)C(=O)N[C@@H](Cc1c[nH]c2ccccc12)C(=O)N[C@@H](Cc1ccc(O)cc1)C(=O)N[C@@H](C)C(N)=O)[C@@H](C)CC is recorded as 0% (measured: HA-02 tetramer; antigen-experienced tetramer+ CD4 T cells, healthy adults, HLA-DRB1*0101; dose not given).
O=C(O)CCn1c(=O)oc2cc(Cl)c(Cl)cc21: “plasma kynurenine change” “no effect” (Kmo knockout mouse, plasma; 30 mg/kg).
CC[C@H](C)[C@H](NC(=O)[C@@H](NC(=O)[C@H](CC(=O)O)NC(C)=O)[C@@H](C)O)C(=O)N[C@@H](CCCNC(=N)N)C(=O)N[C@@H](CC(C)C)C(=O)N[C@@H](CC(C)C)C(=O)N[C@@H](Cc1ccccc1)C(=O)N[C@@H](CCC(N)=O)C(=O)N[C@@H](CC(C)C)C(=O)N[C@@H](CCSC)C(=O)N[C@@H](CCCNC(=N)N)C(=O)N1CCC[C@H]1C(=O)N1CCC[C@H]1C(=O)N[C@@H](CC(N)=O)C(=O)N[C@@H](CCSC)C(=O)N[C@H](C(=O)N1CCC[C@H]1C(=O)N[C@@H](C)C(=O)N[C@H](C(=O)N[C@@H](CC(N)=O)C(=O)N[C@@H](C)C(N)=O)C(C)C)[C@@H](C)O: “α4β7+ CCR9− cells” 58.8% (measured: HA-51 tetramer; antigen-experienced tetramer+ CD4 T cells, healthy adults, HLA-DRB1*0101; dose not given).
For COc1cc2c(cc1OC)C(=O)C(=Cc1ccc(N3CC[N+](C)(C)CC3)cc1)C2, escape latency read “decreased” (Morris water maze; Wistar rat, amyloid beta-induced Alzheimer model; oral, dose not given, 21 days).
Cc1cc(O)cc(C)c1CC(N)C(=O)NC1CCNc2c1cc(Cc1ccccc1)cc2C(F)(F)F (stereo not shown): antinociception “inactive” (warm water tail withdrawal; male C57BL/6 mice; intraperitoneal, 10 mg/kg).
C[C@]12CC[C@H](O)CC1CCC1C2[C@H](O)C(=O)[C@]2(C)[C@@H](c3ccc(=O)oc3)CC[C@]12O (stereo partly shown) has a Vmax of 0.035 ± 0.001 nmol/min/mg (sulfation, substrate; pig liver cytosol).
Under “serum ALT and AST”, CCCCCCCCCCCCCCCC(=O)N[C@@H](CCC(=O)NCCOCCOCCC(=O)NCCOCCOCCC(=O)NCCCC[C@H](NC(=O)[C@H](CC(=O)O)NC(=O)[C@H](CC(C)C)NC(=O)[C@H](Cc1ccc(O)cc1)NC(=O)[C@H](CCCCN)NC(=O)[C@H](CO)NC(=O)[C@H](Cc1ccc(O)cc1)NC(=O)[C@H](CC(=O)O)NC(=O)[C@H](CO)NC(=O)[C@@H](NC(=O)[C@H](Cc1ccccc1)NC(=O)[C@@H](NC(=O)CNC(=O)[C@H](CCC(N)=O)NC(=O)[C@@H](CO)NC(=O)[C@@H](N)Cc1c[nH]cn1)[C@@H](C)O)[C@@H](C)O)C(=O)N[C@@H](CCCNC(=N)N)C(=O)N[C@@H](CCCNC(=N)N)C(=O)N[C@@H](C)C(=O)N[C@@H](CCC(N)=O)C(=O)N[C@@H](CC(=O)O)C(=O)N[C@@H](Cc1ccccc1)C(=O)N[C@H](C(=O)N[C@@H](CCC(N)=O)C(=O)N[C@@H](Cc1c[nH]c2ccccc12)C(=O)N[C@@H](CC(C)C)C(=O)N[C@@H](CC(C)C)C(=O)N[C@@H](CC(N)=O)C(=O)N[C@H](C(=O)NCC(=O)NCC(=O)N1CCC[C@H]1C(=O)N[C@@H](CO)C(=O)N[C@@H](CO)C(=O)NCC(=O)N[C@@H](C)C(=O)N1CCC[C@H]1C(=O)N1CCC[C@H]1C(=O)N1CCC[C@H]1C(=O)N[C@@H](CO)C(N)=O)[C@@H](C)O)C(C)C)C(=O)O is recorded as “decreased” (C57BL/6J mouse CCl4 model; dose not given).
CC(C)C[C@H](NC(=O)[C@H](C)NC(=O)CNC(=O)[C@H](CO)NC(=O)CNC(=O)[C@H](CCCNC(=N)N)NC(=O)[C@H](CCCNC(=N)N)NC(=O)[C@H](CCCNC(=N)N)NC(=O)[C@H](CCC(N)=O)NC(=O)[C@H](CCCNC(=N)N)NC(=O)[C@H](CCCNC(=N)N)NC(=O)[C@H](CCCCN)NC(=O)[C@H](CCCCN)NC(=O)[C@H](CCCNC(=N)N)NC(=O)CNC(=O)[C@@H](N)Cc1ccc(O)cc1)C(=O)N[C@@H](CO)C(=O)N[C@H](C(=O)N[C@@H](CCC(=O)O)C(=O)N[C@@H](CCCNC(=N)N)C(=O)O)[C@@H](C)O: MARCKS phosphorylation “no inhibition” (inhibitor; isolated rat heart; concentration not given, ischemia/reperfusion).
C[C@@H](O)[C@H](NC(=O)[C@@H]1CSSC[C@H](NC(=O)[C@@H](Cc2ccccc2)NC(=O)CN2CCN(CC(N)=O)CCN(CC(N)=O)CCN(CC(N)=O)CC2)C(=O)N[C@@H](Cc2ccc(O)cc2)C(=O)N[C@H](Cc2c[nH]c3ccccc23)C(=O)N[C@@H](CCCCN)C(=O)N[C@@H]([C@@H](C)O)C(=O)N1)C(=O)O [lead-212 labelled] has a median survival of 9.4 weeks (AR-42J tumour, mice; three x 10 µCi, three-week intervals).
CC[C@H](C)[C@H](NC(=O)[C@H](C)NC(=O)CNC(=O)[C@@H](N)CCSC)C(=O)N[C@@H](C)C(=O)N[C@@H](CCCCN)C(=O)N[C@@H](CC(C)C)C(=O)N[C@H](C(=O)N[C@@H](C)C(=O)N[C@@H](CCCCN)C(=O)N[C@@H](Cc1ccccc1)C(=O)NCC(=O)N[C@@H](Cc1c[nH]c2ccccc12)C(=O)N1CCC[C@H]1C(=O)N[C@@H](Cc1ccccc1)C(=O)N[C@H](C(=O)N[C@@H](CCCCN)C(=O)N[C@@H](CCCCN)C(=O)N[C@@H](Cc1ccccc1)C(=O)N[C@@H](Cc1ccc(O)cc1)C(=O)N[C@@H](CCCCN)C(=O)N[C@@H](CCC(N)=O)C(=O)N[C@H](C(=O)N[C@@H](CCSC)C(=O)N[C@@H](CCC(N)=O)C(=O)N[C@@H](CCCNC(=N)N)C(=O)N[C@H](C(=O)NCC(=O)N[C@@H](CCC(N)=O)C(=O)NCC(=O)N[C@@H](Cc1c[nH]c2ccccc12)C(=O)N[C@H](C(=O)N[C@H](C(=O)N[C@@H](CC(=O)O)C(=O)N[C@@H](CCC(N)=O)C(=O)N[C@H](C(=O)N[C@@H](CCC(=O)O)C(=O)N[C@@H](CCCCN)C(=O)N[C@@H](Cc1c[nH]c2ccccc12)C(=O)N[C@@H](CC(C)C)C(=O)N[C@@H](CCCCN)C(=O)N[C@@H](CCCNC(=N)N)C(=O)N[C@@H](Cc1c[nH]cn1)C(=O)O)[C@@H](C)CC)[C@@H](C)CC)[C@@H](C)O)[C@@H](C)CC)[C@@H](C)CC)[C@@H](C)CC)C(C)C gave a calcein release of 26.1 ± 1.5% (PG/PE 1:1 liposomes; MIC; reference: Triton X-100).
Under “IPSC suppression fraction”, COc1cc(C(Oc2ccc(C[C@H](N)C(=O)N[C@H](C)C(=O)NCC(=O)N(C)[C@@H](Cc3ccccc3)C(=O)NCCO)cc2)C(=O)O)c([N+](=O)[O-])cc1OC (stereo partly shown) is recorded as 0.61 ± 0.05 (inhibitory synaptic transmission, whole-cell voltage clamp; mouse hippocampal slices CA1; 1 µM, together with: 355 nm flash 5 ms 84 mW).
With Cc1cc(O)cc(C)c1C[C@H](N)C(=O)N[C@H](C)C(=O)NCC(=O)N(C)[C@@H](Cc1ccccc1)C(=O)N1CCC[C@H]1C(=O)N[C@@H](CC(C)C)C(=O)N[C@@H](Cc1c[nH]c2ccccc12)C(=O)NCc1cc(C(F)(F)F)cc(C(F)(F)F)c1 the selectivity ratio was 1.5 (agonist; guinea pig ileum, mouse vas deferens; reference: MOR over DOR).
Under IL-10 level, CC(C)C[C@H](NC(=O)[C@H](CCCCN)NC(=O)[C@H](CCCNC(=N)N)NC(=O)[C@@H](CC(C)C)NC(=O)[C@H](Cc1c[nH]c2ccccc12)NC(=O)[C@H](CC(=O)O)NC(=O)[C@H](CCCCN)NC(=O)[C@@H](CC(C)C)NC(=O)[C@H](CCCNC(=N)N)NC(=O)[C@H](CCC(N)=O)NC(=O)[C@@H](NC(=O)[C@@H](CC(C)C)NC(=O)[C@H](CCCNC(=N)N)NC(=O)[C@H](CCCCN)NC(=O)[C@H](Cc1ccc(C(C)(C)C)cc1)NC(=O)CN)C(C)C)C(=O)N[C@H](C(N)=O)C(C)C is recorded as “increased” (ELISA; C57BL/6 mouse, catheter infection, peri-catheter tissue; dose not given, 3 d; reference: untreated infected).
For Cc1cc(O)cc(C)c1CC(N)C(=O)NC1CCNc2c(F)cc(Cc3ccccc3)cc21 (stereo not shown), antinociception read “inactive” (warm water tail withdrawal; male C57BL/6 mice; intraperitoneal, 10 mg/kg).
CS(C)(=O)=Nc1ccc(-c2ccc(-c3nc4cc(O[C@@H]5CO[C@H]6[C@@H]5OC[C@H]6O)[nH]c4cc3F)cc2)cc1: hepatic cholesterol “decreased” (ob/ob mouse, AMLN diet NASH model; oral, 5 mg/kg daily, 8 weeks; reference: vehicle).
For CC(C)C[C@@H]1NC(=O)[C@@H](Cc2c[nH]c3ccccc23)NC(=O)[C@H](CCCNC(=N)N)NC(=O)[C@@H](CCC(=O)O)NC(=O)[C@H](CCC(N)=O)NC(=O)[C@@H](CCC(=O)O)NC(=O)[C@H](CCCNC(=N)N)NC(=O)[C@@H](Cc2c[nH]c3ccccc23)NC1=O, “pre-beta HDL concentration” read 81 ± 11 µg/mL (ELISA; human plasma; concentration not given).
For CCN(Cc1ccccc1)C(=O)CCc1nc(CN2CCN(C(=O)Cc3ccc(OC)c(OC)c3)CC2)no1, “resting membrane potential” read -65.8 ± 2.68 mV (current clamp; L4-L6 DRG neurons, rat CCI model; 1 µM).
COC[C@@H](NC(C)=O)C(=O)NCc1ccc(OCc2ccccc2)cc1 gave a licking time of 77% (formalin test, phase I; mouse; ip, 5.8 mg/kg; reference: vehicle).

Excerpt of the above:
Under IL-10 level, CC(C)C[C@H](NC(=O)[C@H](CCCCN)NC(=O)[C@H](CCCNC(=N)N)NC(=O)[C@@H](CC(C)C)NC(=O)[C@H](Cc1c[nH]c2ccccc12)NC(=O)[C@H](CC(=O)O)NC(=O)[C@H](CCCCN)NC(=O)[C@@H](CC(C)C)NC(=O)[C@H](CCCNC(=N)N)NC(=O)[C@H](CCC(N)=O)NC(=O)[C@@H](NC(=O)[C@@H](CC(C)C)NC(=O)[C@H](CCCNC(=N)N)NC(=O)[C@H](CCCCN)NC(=O)[C@H](Cc1ccc(C(C)(C)C)cc1)NC(=O)CN)C(C)C)C(=O)N[C@H](C(N)=O)C(C)C is recorded as “increased” (ELISA; C57BL/6 mouse, catheter infection, peri-catheter tissue; dose not given, 3 d; reference: untreated infected).
